# Measurements of several laboratories.
# Lines come from different studies, so protocols differ. ± marks the error that the study gave.
# CHRM1: Muscarinic acetylcholine receptor M1 (CHRM1, Homo sapiens, UniProt P11229)
# Chain of UniProt P11229 (whole entry, looked up): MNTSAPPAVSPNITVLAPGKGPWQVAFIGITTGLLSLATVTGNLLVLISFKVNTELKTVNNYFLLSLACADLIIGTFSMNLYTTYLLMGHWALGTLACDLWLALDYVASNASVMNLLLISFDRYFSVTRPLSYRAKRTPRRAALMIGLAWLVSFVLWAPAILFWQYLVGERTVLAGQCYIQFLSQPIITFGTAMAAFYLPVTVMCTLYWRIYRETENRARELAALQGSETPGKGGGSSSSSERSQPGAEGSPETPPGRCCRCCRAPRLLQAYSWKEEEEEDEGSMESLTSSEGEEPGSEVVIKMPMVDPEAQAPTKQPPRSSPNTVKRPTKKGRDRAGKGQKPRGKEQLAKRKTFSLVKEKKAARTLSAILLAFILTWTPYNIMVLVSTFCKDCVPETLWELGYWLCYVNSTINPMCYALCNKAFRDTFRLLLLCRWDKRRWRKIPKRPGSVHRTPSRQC
# SCN10A: Sodium channel protein type 10 subunit alpha (SCN10A, Homo sapiens, UniProt Q9Y5Y9)
# Chain of UniProt Q9Y5Y9 (whole entry, looked up): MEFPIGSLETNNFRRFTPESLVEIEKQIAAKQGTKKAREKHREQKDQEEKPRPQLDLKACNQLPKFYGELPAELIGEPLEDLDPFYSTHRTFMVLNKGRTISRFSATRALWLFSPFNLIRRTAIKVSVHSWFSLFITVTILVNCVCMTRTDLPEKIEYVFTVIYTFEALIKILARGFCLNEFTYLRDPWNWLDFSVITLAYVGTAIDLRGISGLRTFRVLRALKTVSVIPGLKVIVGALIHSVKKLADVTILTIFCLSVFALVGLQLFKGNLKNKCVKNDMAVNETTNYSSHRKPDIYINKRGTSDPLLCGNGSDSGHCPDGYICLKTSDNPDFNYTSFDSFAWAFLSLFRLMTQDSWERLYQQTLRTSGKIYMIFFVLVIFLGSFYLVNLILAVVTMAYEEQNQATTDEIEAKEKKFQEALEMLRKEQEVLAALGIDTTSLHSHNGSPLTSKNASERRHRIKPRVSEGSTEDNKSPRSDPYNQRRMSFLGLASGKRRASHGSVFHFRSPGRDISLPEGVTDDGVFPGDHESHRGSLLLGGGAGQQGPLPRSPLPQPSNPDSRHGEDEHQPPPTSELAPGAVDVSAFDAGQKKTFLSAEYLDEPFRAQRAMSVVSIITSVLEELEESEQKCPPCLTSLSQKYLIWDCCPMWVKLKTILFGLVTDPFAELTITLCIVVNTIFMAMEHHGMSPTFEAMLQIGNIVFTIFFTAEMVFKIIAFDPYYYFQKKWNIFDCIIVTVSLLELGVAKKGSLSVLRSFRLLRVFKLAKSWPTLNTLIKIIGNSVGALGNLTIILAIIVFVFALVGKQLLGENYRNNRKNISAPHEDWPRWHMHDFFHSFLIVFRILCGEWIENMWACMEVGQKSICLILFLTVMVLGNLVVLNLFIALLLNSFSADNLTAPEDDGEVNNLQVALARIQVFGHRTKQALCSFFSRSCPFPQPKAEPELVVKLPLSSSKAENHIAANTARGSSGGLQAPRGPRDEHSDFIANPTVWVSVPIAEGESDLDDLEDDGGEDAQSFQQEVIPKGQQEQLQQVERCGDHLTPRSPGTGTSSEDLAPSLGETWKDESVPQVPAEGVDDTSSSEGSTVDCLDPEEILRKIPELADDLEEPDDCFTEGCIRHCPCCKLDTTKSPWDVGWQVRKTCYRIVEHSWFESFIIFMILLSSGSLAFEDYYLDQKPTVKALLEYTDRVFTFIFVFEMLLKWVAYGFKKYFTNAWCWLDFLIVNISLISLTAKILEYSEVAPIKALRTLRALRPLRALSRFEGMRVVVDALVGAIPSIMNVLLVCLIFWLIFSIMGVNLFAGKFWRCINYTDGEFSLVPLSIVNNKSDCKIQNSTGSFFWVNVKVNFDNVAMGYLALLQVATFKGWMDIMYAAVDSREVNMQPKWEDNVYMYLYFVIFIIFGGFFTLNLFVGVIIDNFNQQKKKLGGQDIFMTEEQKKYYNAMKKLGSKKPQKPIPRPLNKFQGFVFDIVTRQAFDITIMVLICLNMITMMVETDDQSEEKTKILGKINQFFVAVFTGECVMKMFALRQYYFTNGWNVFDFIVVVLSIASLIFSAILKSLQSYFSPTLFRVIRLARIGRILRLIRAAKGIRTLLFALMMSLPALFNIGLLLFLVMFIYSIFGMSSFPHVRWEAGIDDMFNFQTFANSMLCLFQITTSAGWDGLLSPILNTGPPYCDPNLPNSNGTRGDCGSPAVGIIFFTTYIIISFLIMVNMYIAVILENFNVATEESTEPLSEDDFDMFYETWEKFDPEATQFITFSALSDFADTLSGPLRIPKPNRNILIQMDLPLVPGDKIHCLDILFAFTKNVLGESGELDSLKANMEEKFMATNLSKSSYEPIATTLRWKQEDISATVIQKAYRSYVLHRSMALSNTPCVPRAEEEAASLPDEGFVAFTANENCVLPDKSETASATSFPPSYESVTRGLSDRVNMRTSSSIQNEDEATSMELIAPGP
# CHRM4: Muscarinic acetylcholine receptor M4 (CHRM4, Homo sapiens, UniProt P08173)
# Chain of UniProt P08173 (whole entry, looked up): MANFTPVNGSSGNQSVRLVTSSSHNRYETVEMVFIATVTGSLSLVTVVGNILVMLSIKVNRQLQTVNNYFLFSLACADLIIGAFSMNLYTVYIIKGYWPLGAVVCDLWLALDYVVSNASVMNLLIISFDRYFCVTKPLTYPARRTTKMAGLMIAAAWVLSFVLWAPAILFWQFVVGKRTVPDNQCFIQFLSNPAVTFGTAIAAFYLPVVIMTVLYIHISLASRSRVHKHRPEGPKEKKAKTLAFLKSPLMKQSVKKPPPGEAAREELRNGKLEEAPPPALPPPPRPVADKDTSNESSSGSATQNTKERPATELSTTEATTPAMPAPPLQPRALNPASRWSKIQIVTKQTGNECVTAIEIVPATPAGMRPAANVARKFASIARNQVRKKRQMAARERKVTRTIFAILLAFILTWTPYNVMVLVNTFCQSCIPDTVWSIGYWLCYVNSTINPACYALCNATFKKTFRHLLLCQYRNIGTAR
# Chain of UniProt B2RXH2 (whole entry, looked up): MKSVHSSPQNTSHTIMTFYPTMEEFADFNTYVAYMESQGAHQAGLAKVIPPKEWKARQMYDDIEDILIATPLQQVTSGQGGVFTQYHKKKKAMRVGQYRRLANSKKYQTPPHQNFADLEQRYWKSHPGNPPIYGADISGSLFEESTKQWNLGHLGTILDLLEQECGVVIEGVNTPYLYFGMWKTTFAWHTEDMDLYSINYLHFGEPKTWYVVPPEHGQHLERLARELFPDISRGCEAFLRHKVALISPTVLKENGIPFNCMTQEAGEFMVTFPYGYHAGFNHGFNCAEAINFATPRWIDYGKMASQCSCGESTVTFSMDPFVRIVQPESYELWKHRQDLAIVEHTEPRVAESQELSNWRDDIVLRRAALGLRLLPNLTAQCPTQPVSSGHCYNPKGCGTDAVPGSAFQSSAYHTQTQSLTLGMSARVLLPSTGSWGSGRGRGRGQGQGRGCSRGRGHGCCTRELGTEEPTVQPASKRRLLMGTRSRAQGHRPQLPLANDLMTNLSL
# Chain of UniProt Q21974 (whole entry, unmodified, looked up): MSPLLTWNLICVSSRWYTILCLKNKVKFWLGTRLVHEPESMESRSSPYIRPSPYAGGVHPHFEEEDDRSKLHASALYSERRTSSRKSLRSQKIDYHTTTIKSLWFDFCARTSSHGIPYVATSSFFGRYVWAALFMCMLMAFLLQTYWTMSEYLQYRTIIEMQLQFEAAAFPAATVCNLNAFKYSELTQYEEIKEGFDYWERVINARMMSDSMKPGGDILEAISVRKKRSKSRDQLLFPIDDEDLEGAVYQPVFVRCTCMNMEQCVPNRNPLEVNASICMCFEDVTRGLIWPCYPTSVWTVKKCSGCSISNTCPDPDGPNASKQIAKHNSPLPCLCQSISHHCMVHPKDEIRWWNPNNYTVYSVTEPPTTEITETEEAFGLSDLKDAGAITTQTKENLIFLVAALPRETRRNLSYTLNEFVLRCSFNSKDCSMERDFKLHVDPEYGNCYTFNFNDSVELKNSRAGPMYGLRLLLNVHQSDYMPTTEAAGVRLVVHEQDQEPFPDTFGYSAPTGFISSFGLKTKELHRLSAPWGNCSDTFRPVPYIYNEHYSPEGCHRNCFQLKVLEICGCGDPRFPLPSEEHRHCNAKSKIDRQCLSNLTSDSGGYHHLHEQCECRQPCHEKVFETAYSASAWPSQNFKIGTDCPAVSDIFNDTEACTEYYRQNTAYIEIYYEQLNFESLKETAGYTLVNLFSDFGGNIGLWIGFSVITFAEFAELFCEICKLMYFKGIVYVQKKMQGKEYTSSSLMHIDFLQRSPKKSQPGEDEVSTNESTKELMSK
# Chain of UniProt P37231 (whole entry, looked up): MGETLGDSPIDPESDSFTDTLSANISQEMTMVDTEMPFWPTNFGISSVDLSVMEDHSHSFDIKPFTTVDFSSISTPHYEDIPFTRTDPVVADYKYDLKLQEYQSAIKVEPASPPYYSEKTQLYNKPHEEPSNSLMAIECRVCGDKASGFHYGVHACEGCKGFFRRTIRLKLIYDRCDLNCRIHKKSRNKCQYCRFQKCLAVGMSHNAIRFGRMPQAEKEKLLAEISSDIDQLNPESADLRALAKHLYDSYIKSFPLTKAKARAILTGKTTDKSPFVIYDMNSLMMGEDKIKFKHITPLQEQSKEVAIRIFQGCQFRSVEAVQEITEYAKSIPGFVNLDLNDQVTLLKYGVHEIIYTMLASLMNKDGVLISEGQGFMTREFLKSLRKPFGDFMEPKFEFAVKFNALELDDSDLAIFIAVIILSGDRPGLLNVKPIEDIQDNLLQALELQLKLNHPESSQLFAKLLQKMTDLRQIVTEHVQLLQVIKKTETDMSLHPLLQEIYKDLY
# Chain of UniProt P16257 (whole entry, looked up): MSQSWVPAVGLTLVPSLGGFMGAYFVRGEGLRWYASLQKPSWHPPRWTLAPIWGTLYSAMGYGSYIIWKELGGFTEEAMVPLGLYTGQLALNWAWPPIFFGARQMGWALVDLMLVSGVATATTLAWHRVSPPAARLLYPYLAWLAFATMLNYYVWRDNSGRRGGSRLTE
Substance,target,test,system,setting,scale,endpoint,result
CCCCn1cc(-c2ccc(COc3ccccc3-c3cc(=O)n(C4CCCCC4O)cn3)cc2)cn1 (stereo not drawn),CHRM1,"allosteric agonist, IP1 accumulation",CHO-M1 cells,"1 µM, unit not given",reference: maximum ACh response,change in baseline activity,24.7 ± 2.4
CCCNC(C)C(=O)Nc1c(C)csc1C(=O)OCC (stereo not drawn),SCN10A,cell membrane chromatography,,,higher = stronger binding,capacity factor k′,23
CN1CC(=O)NC1=NC(=O)Nc1cccc(Cl)c1,"Grm5 (Rattus norvegicus, UniProt P31424)","calcium mobilization, negative allosteric modulator",,"30 min, with: glutamate",,pKB,7.31 ± 0.08 -log M
CCN(CC)C(=O)c1ccc(COc2ccccc2-c2cc(=O)n(C3CCCCC3O)cn2)cc1 (stereo not drawn),CHRM1,"positive allosteric modulator, IP1 accumulation",CHO-M1 cells,"1 µM, 60 min, 37 °C, with: ACh","reference: ACh alone, higher = stronger potentiation",ΔpEC50 of ACh,0.18 ± 0.1 log units
COc1ccc(C)c2sc(NS(=O)(=O)c3cccc(C)c3)nc12,CHRM4,"calcium mobilization, positive allosteric modulator",CHO expressing hM4 and Gqi5,"concentration not given, with: acetylcholine EC20",,activity,inactive
O=C(O[C@@H]1Cc2c(O)cc(O)cc2O[C@@H]1c1cc(O)c(O)c2c(=O)c(O)cc([C@H]3Oc4cc(O)cc(O)c4C[C@H]3O)cc12)c1cc(O)c(O)c(O)c1,"Protein immune deficiency (imd, Drosophila melanogaster, UniProt Q7K4Z4)","inhibitor, SDD-AGE densitometry",,"100 µM, 30 min, room temperature",,reduction of aggregates,58.2%
NC(=NCc1ccccc1)NC(=O)c1nc(Cl)c(N)nc1N,"unc-8 (Caenorhabditis elegans, UniProt Q21974, G387E)","ion current, two-electrode voltage clamp",Xenopus oocytes coexpressing MEC-2,"30 µM, -85 mV","reference: uninjected oocytes, positive = inhibition",current change,0.87 µA
AAPVRGMG,"Neutrophil elastase (ELANE, Homo sapiens, UniProt P08246)",substrate,"peptide, PEG hydrogel",with: elastase 1 µM,,complete release time,~1 h
CNC(=O)c1ccc(COc2ccccc2-c2cc(=O)n(C3CCCCC3O)cn2)cc1 (stereo not drawn),CHRM1,"positive allosteric modulator, IP1 accumulation",CHO-M1 cells,"1 µM, 60 min, 37 °C, with: ACh","reference: ACh alone, higher = stronger potentiation",ΔpEC50 of ACh,1.22 ± 0.69 log units
Cn1c(=O)c2[nH]c(SCc3ccccc3)nc2n(C)c1=O,"PGR (Homo sapiens, UniProt P06401)","reporter gene, antagonist, MMTV-luciferase",T47D/A1-2,"10 µM, 24 h, with: 5 nM progesterone",reference: maximal activity,remaining activity,77%
O=C(O)[C@H]1O[C@@H](Oc2ccc(-c3cc(=O)c4ccccc4o3)cc2)[C@H](O)[C@@H](O)[C@@H]1O,"UGT1A1 (Homo sapiens, UniProt P22309)","glucuronidation, substrate, Supersomes",,,,Vmax,0.85 ± 0.01 nmol/mg/min
COC(=O)c1scc(C)c1NC(=O)C(C)N1CCN(C(C)(C)C)CC1 (stereo not drawn),SCN10A,cell membrane chromatography,,,higher = stronger binding,capacity factor k′,0
CCNC(=O)c1ccc(COc2ccccc2-c2cc(=O)n(C3CCCCC3O)cn2)cc1 (stereo not drawn),CHRM1,"positive allosteric modulator, IP1 accumulation",CHO-M1 cells,"1 µM, 60 min, 37 °C, with: ACh","reference: ACh alone, higher = stronger potentiation",ΔpEC50 of ACh,1.62 ± 0.46 log units
CN(C)C(=O)Cc1nn(-c2cccc([18F])n2)c(=O)c2c1c1ccc(Cl)cc1n2C,"Tspo (Rattus norvegicus, UniProt P16257)",PET displacement,C6 glioma-bearing rats,"iv, 10 mg/kg, approx. 30 min after tracer",reference: peak uptake,tumour tracer binding,~40%
COc1ccc(C)c2sc(C(=O)NCc3ccncc3)nc12,CHRM4,"calcium mobilization, positive allosteric modulator",CHO expressing hM4 and Gqi5,"concentration not given, with: acetylcholine EC20",,activity,inactive
Carbidopa,"KDM4E (Homo sapiens, UniProt B2RXH2)",FDH-coupled,,,reference: FAS 20 µM over 2.5 µM,IC50 ratio,3.9
NS(=O)(=O)c1ccc(COc2ccccc2-c2cc(=O)n(C3CCCCC3O)cn2)cc1 (stereo not drawn),CHRM1,"positive allosteric modulator, IP1 accumulation",CHO-M1 cells,"1 µM, 60 min, 37 °C, with: ACh","reference: ACh alone, higher = stronger potentiation",ΔpEC50 of ACh,0.76 ± 0.1 log units
C=CC(C)(C)c1cc2cc(-c3ccc(O)cc3O)c(=O)oc2cc1O,quinone reductase,inducer,Hepa1c1c7,,,concentration doubling activity,13.3 µM
O=C(c1ccc(COc2ccccc2-c2cc(=O)n(C3CCCCC3O)cn2)cc1)N1CCCCC1 (stereo not drawn),CHRM1,"positive allosteric modulator, IP1 accumulation",CHO-M1 cells,"10 µM, 60 min, 37 °C, with: ACh","reference: ACh alone, higher = stronger potentiation",ΔpEC50 of ACh,0.86 ± 0.13 log units
CCCc1nc2c(C)cc(-c3nc4ccccc4n3C)cc2n1Cc1ccc(-c2ccccc2C(=O)O)cc1,"PPARG (Homo sapiens, UniProt P37231)",,COS-7,"10 µM, 39 h",,Emax,61.3%
CCn1cc(-c2ccc(COc3ccccc3-c3cc(=O)n(C4CCCCC4O)cn3)cc2)cn1 (stereo not drawn),CHRM1,"allosteric agonist, IP1 accumulation",CHO-M1 cells,"1 µM, unit not given",reference: maximum ACh response,change in baseline activity,43.5 ± 2.6
Nc1ncnc2c1ncn2[C@@H]1O[C@H](CO)C[C@H]1O,"Adenosine deaminase (Homo sapiens, UniProt P00813)",substrate,"HEK293 expressing ADA1, cell homogenate",37 °C,,Vmax,45.8 nmol/mg/min
O=C1c2c(O)ccc(O)c2C(=O)c2c(NCCNCCO)ccc(NCCNCCO)c21,"ABCG2 (Homo sapiens, UniProt Q9UNQ0)","vanadate-sensitive ATPase activity, activator",membrane vesicles,unit not given,reference: basal,maximal ATPase stimulation,2.04
CN(C)Cc1cc(OCCC[18F])ccc1Sc1ccccc1N,"Slc6a4 (Rattus norvegicus, UniProt P31652)",in vitro autoradiography,"6-OHDA lesioned rat, left striatum brain sections",dose not given,,binding change,3.3%

# Some of these lines once more:
Substance,target,test,system,setting,scale,endpoint,result
CCNC(=O)c1ccc(COc2ccccc2-c2cc(=O)n(C3CCCCC3O)cn2)cc1 (stereo not drawn),CHRM1,"positive allosteric modulator, IP1 accumulation",CHO-M1 cells,"1 µM, 60 min, 37 °C, with: ACh","reference: ACh alone, higher = stronger potentiation",ΔpEC50 of ACh,1.62 ± 0.46 log units
C=CC(C)(C)c1cc2cc(-c3ccc(O)cc3O)c(=O)oc2cc1O,quinone reductase,inducer,Hepa1c1c7,,,concentration doubling activity,13.3 µM
